Measured values from different studies.
Lines come from different studies, so protocols differ. ± marks the error that the study gave.

| Compound | cell line | assay | setting | scale | quantity | value |
| --- | --- | --- | --- | --- | --- | --- |
| CC(C)C[C@H](NC(=O)[C@H](CC(C)C)NC(=O)[C@@H](N)C(C)C)C(=O)N[C@@H](CO)C(=O)N1CCC[C@H]1C(=O)N[C@@H](CC(C)C)C(=O)N[C@@H](CO)C(=O)N[C@@H](CCCNC(=N)N)C(=O)N[C@H](C(=O)O)C(C)C | SK-N-MC, HLA-A*02:01 | quantitative immunopeptidomics | together with: IFN-γ | – | peptide-MHC complexes per cell | 43 |
| CC(C)Cc1ccc(C(C)C(=O)N/N=C/c2ccc(OCC(=O)N/N=C/c3c(O)ccc4ccccc34)cc2)cc1 (centres unmarked) | U87 MG | MTT | 40 µM, 48 h | – | viability | 100% |
| CC(=O)OC[C@H]1O[C@@H](Sc2sc(C(=O)c3ccc(Br)cc3)c(N)c2-c2nc3ccccc3s2)[C@H](OC(C)=O)[C@@H](OC(C)=O)[C@H]1OC(C)=O | EKVX | SRB | 10 µM, 48 h | reference: untreated | growth | 80.5% |
| CC1=CC(C)(C)N=C(Nc2nc(C)c3cc(C)cc(C)c3n2)N1 | PBMC | ELISA | 10 µM, 48 h | reference: untreated | IFN-γ increase | 160% |
| CC1(C)OC(=O)C[C@H](O)[C@]2(C)[C@H]3CC[C@@]4(C)[C@H](c5ccoc5)OC(=O)[C@H]5O[C@]54[C@]3(C)C(=O)C[C@@H]12 | COLO 320 (ABCB1-overexpressing, multidrug-resistant) | cell growth | 200 µM starting, CI at ED50, together with: doxorubicin, ratio 371.2:1 | – | combination index | 0.62 |
| COc1cc(CNC(=O)C[C@H](C)CCC=C(C)C)ccc1OCc1cn(-c2ccc(Cl)c(Cl)c2)nn1 | Hs-578T breast cancer cells | SRB | 10 µM, 48 h | – | growth percent | 57% |
| CCC[C@H]1CC[C@H](c2ccc(NC(=S)NC[C@@H]3[C@@H](O)[C@@H](O)[C@H]4[C@H](O)CCCN43)cc2)CC1 | Huh-7 | Transwell | concentration not given | – | cell invasion | decreased |
| COc1cc(CNC(=O)C[C@H](C)CCC=C(C)C)ccc1OCc1cn(-c2cccc(Cl)c2)nn1 | T47D breast cancer cells | SRB | 10 µM, 48 h | – | growth percent | 58.6% |
| COc1cc2c(OC3OCC(OC)C(OC)C3OC(=O)c3ccc(Br)cc3)c3c(c(-c4ccc5c(c4)OCO5)c2cc1OC)C(=O)OC3 (centres unmarked) | CAL-27 | RT-qPCR, refers to: fibronectin | concentration not given, 36 h | – | mRNA level | decreased |
| Cc1ccc(C(C)C)cc1.O=C([N-]c1nc2ccccc2s1)c1cnccn1.[Cl-].[Ru+2] | Caco-2 | cytotoxicity, MTT | – | reference: KMST-6 over Caco-2 | selectivity index | > 2 |
| O=C1c2c(O)cc(O)cc2-c2c(-c3ccc(O)cc3)oc3cc(O)cc1c23 | T47D ESR1 Y537S | RNA-seq, refers to: GREB1, PGR, MYC | 10 µM, 24 h | – | mRNA level | decreased |
| COc1ccc(/C=N\NC(=O)[C@]2(C)C3CC[C@]4(C)C(C(=O)C=C5C6[C@@H](C)[C@H](C)CC[C@]6(C)CC[C@]54C)[C@@]3(C)CC[C@H]2OC(C)=O)cc1O (some centres unmarked) | RAW264.7 | NO release, inhibitor, Griess | 10 µM, 24 h, LPS-stimulated | – | inhibition | 85.2% |
| COc1ccc([C@@H]2CC(=O)c3c(O)cc(O[C@@H]4O[C@H](CO[C@@H]5O[C@@H](C)[C@H](O)[C@@H](O)[C@H]5O)[C@@H](O[C@H]5O[C@H](CO)[C@@H](O)[C@H](O)[C@H]5O)[C@H](O)[C@H]4O)cc3O2)cc1O | MRC5 | trypan blue exclusion | 50 µg/mL, 72 h | – | cell count | 16200 ± 602 |
| c1cc(-c2nc3ccc(N4CCOCC4)cc3[nH]2)cc(N2CCc3ccccc3C2)c1 | HT-22 | protection from ferroptosis, CCK-8 viability | 24 h, together with: 1 µM erastin | – | EC50 | 1.7 µM |
| CC(C)=CCc1c(OCC2OC2(C)C)ccc2ccc(=O)oc12 (centres unmarked) | COLO 320 (ABCB1-overexpressing, multidrug-resistant) | cell growth | 150 µM starting, CI at ED50, together with: doxorubicin, ratio 17.42:1 | – | combination index | 1.17 |
| CNC(=O)C1(N)CC2OC1(C)n1c3ccccc3c3c4c(c5c6ccccc6n2c5c31)C(=O)NC4 (centres unmarked) | MOLM-14 | cell proliferation, MTT | 48 h, together with: 50% human plasma | reference: 10% FBS | IC50 shift | 9 fold |
| COc1cc(CNC(=O)C[C@H](C)CCC=C(C)C)ccc1OCc1cn(-c2cccc([N+](=O)[O-])c2)nn1 | LOX IMVI | SRB | 10 µM, 48 h | – | growth | 71.4% |
| O=Cc1c(O)ccc2ccccc12 | HUVEC | RNA sequencing, refers to: FADS2 | 75 µM, 24 h | reference: DMSO | log2 fold change | -3.03 |
| COc1cc(CNC(=O)C[C@H](C)CCC=C(C)C)ccc1OCc1cn(-c2ccc(Cl)cc2Cl)nn1 | T47D breast cancer cells | SRB | 10 µM, 48 h | – | growth percent | 60.2% |

| Compound | cell line | assay | setting | scale | quantity | value |
| --- | --- | --- | --- | --- | --- | --- |
| CC(C)CC(CC(C)C)NC(=O)[C@H](Cc1c[nH]cn1)NC(=O)CNC(=O)[C@@H](NC(=O)[C@H](C)NC(=O)[C@H](Cc1c[nH]c2ccccc12)NC(=O)[C@H](CCC(N)=O)NC(=O)[C@@H](Cc1ccccc1)NC(=O)COCC(=O)Nc1ccc(CNC(=O)CN2CCN(CC(=O)O)CCN(CC(=O)O)CCN(CC(=O)O)CC2)cc1)C(C)C [lutetium-177 labelled] | PC-3, no chemotherapy pretreatment | SRB assay after 6 days | 50 MBq, 1 h, 37 °C | reference: medium-treated | cell density | 76.9 ± 18.3% |
| COc1cc(CNC(=O)C[C@H](C)CCC=C(C)C)ccc1OCc1cn(-c2ccc([N+](=O)[O-])cc2)nn1 | DU-145 | SRB | 10 µM, 48 h | – | growth percent | 86.4% |
| Cc1nn(-c2ccc(S(=O)(=O)N[C@@H](CO)CC(C)C)cc2)c2nn3nnnc3nc12 | HT-29 | AO/EB staining | 2 µM, 24 h | – | necrotic cells | 19 ± 1.41% |
| COc1cc(CNC(=O)C[C@H](C)CCC=C(C)C)ccc1OCc1cn(-c2ccc(C#N)cc2)nn1 | MDA-MB-435 melanoma cells | SRB | 10 µM, 48 h | – | growth percent | 81.3% |
| COc1cc(N2CCN(C(=O)CN)CC2)ccc1Nc1ncc(Cl)c(Nc2ccccc2P(C)(C)=O)n1 | NCI-H3122 GID4 knockout | degrader | concentration not given, 24 h | reference: parental cells | EML4-ALK level | no effect |
| CC/C=C\C/C=C\C/C=C\C/C=C\C/C=C\C/C=C\CCC(=O)Nc1ccn(C2OC(CO)C(O)C2(F)F)c(=O)n1 (centres unmarked) | ACHN | NCI60 screen | – | – | TGI | 10.1 µM |
| COc1cc(CN2CCN(c3ccc(F)cc3)CC2)c2cc3[n+](cc2c1O)CCc1cc2c(cc1-3)OCO2 | HeLa and MDCK | SRB | 48 h | reference: CC50 MDCK over IC50 HeLa | therapeutic index | 31.5 |
| CS(=O)(=O)c1ccc(-c2nnc(/C=C/c3nnc(-c4ccc(C#N)cc4)o3)n2-c2ccccc2Cl)nc1 | COLO 320DM | qRT-PCR, refers to: AXIN2 and MYC | concentration not given, 48 h | – | mRNA level | decreased |
| CCC12CCc3c(c4ccccc4n3C)CCN(CC3OC31)C2 (centres unmarked) | BV-2 | western blot | 25 µM, together with: LPS | reference: LPS alone | p38 phosphorylation | ~55% |
| C=C(CC)C(=O)c1ccc(OCC(=O)NCCCCNC(=O)COc2ccc(C(=O)C(=C)CC)c(Cl)c2Cl)c(Cl)c1Cl | SK-OV-3/DDP cisplatin-resistant | cell growth, CCK-8 | 0.2 µM, together with: cisplatin | – | sensitisation to cisplatin | ~3 fold |
| CC(=O)OC[C@H]1O[C@@H](Sc2sc(C(=O)c3ccc(C)cc3)c(N)c2-c2nc3ccccc3s2)[C@H](OC(C)=O)[C@@H](OC(C)=O)[C@H]1OC(C)=O | LOX IMVI | SRB | 10 µM, 48 h | – | growth | 92% |
| COc1cc(CNC(=O)C[C@H](C)CCC=C(C)C)ccc1OCc1cn(-c2ccccc2[N+](=O)[O-])nn1 | RXF 393 | SRB | 10 µM, 48 h | – | growth percent | 55.9% |
| CCc1cccc(CC)c1NC(=O)c1nn(C)c2c1CCc1cnc(Nc3ccc(N4CCN(C)CC4)cc3OC)nc1-2 | DLD-1 S611R | cell proliferation | – | reference: DLD-1 S611R over parental DLD-1 | IC50 ratio | 10 |
| CC(C)Cc1ccc(C(C)C(=O)N/N=C/c2ccc(OCC(=O)N/N=C/c3cccc(O)c3)cc2)cc1 (centres unmarked) | U87 MG | MTT | 100 µM, 48 h | – | viability | 107% |
| COc1cc(CNC(=O)C[C@H](C)CCC=C(C)C)ccc1OCc1cn(-c2ccc(Br)cc2)nn1 | EKVX | SRB | 10 µM, 48 h | – | growth percent | 79% |
| CCOC(=O)c1csc2nc(-c3cccc(NC(=O)c4cc5cc(NC(=O)c6ccco6)ccc5n4Cc4ccc(C(F)(F)F)cc4)c3)cn12 | RAW264.7 | – | 10 µM, together with: LPS | reference: control | intracellular GSH level | decreased |
| C=CC(=O)Nc1ccc(F)c(-c2ncnc3[nH]cc(C(=O)OCC)c23)c1 | mouse T cells | – | concentration not given, 24 h, together with: IL-2 | – | cyclin D3 induction | inhibited |
| Nc1nc2cc(CC[C@H]3C[C@@H](n4ccc5c(N)ncnc54)[C@H](O)[C@@H]3O)ccc2cc1Br | NCI-H1048 | inhibitor, immunoblot, refers to: SmD1/3 dimethylarginine | 0.03 and 0.3 µM, 72 h | – | protein level | decreased |
| O=C1OCC2=C1C(c1cccc(Br)c1)C1=C(N2)C(=O)c2ccccc2C1=O (centres unmarked) | SK-LU-1 cells | PI flow cytometry | 0.16 µM, 24 h | – | cells in S phase | 21.6% |
